Measurements from different studies.
Protocols differ between the studies behind these lines.

ksi D40I/D103N (Pseudomonas putida)
pKa (UV-vis, refers to: Tyr57; 25 °C): 8.5

ahpC (Salmonella typhimurium, UniProt P0A251)
pKa (UV-vis, refers to: Cys46; ammonium sulfate 100 mM, numbering of the source): 5.84

ksi D40S/D103N (Pseudomonas putida)
pKa (UV-vis, refers to: Tyr57; 25 °C): 8.2

CISD1 K55E (Homo sapiens)
pKa (redox potentiometric titration, refers to: His87; oxidised cluster, His87): 9.2

PBP1 mature (Amyelois transitella)
pKa (NMR, refers to: His95; 25 °C, free protein; not delipidated): 6

nuc G50F/V51N/P117G/H124L/S128A/del44-49/E122Q (Staphylococcus aureus)
pKa (NMR, refers to: His8; 298 K, KCl 100 mM, numbering of the source): 6.5

PRL (Homo sapiens, UniProt P01236)
pKa (NMR, refers to: His46; 35 °C, numbering of the source): 6.56

proteorhodopsin, retinal (uncultured gamma-proteobacterium EBAC31A08, UniProt Q9F7P4)
pKa (UV-vis, refers to: Asp97; E. coli membranes; NaCl 100 mM, not purified, oligomeric): 6.7

FIS1 cytosolic domain, lacks C-terminal 29 (Saccharomyces cerevisiae, UniProt P40515)
pKa (NMR, refers to: His106; 25 °C, NaCl 50 mM): 6.04

PCSK1 propeptide domain (Homo sapiens, UniProt P29120)
pKa (mass spectrometry, refers to: His67; apparent, histidine H/D exchange, pepsin digest): 6.31

CRYGD P23T (Homo sapiens)
pKa (NMR, refers to: His15; 25 °C, numbering of the source): 6.51

ksi D40N/D103N (Pseudomonas putida)
pKa (UV-vis, refers to: Tyr57; 25 °C): 7.2

rnpA F107W (Bacillus subtilis)
pKa (NMR, refers to: His3; 25 °C, 0.50 M NaCl, folded, sulfate-bound, added: sulfate 20 mM): 6.25

ksi D40N/F56A/D103N (Pseudomonas putida)
pKa (UV-vis, refers to: Tyr57; 25 °C): 7.4

nuc G50F/V51N/P117G/H124L/S128A/del44-49/L38D/E122Q (Staphylococcus aureus)
pKa (NMR, refers to: His8; 298 K, KCl 100 mM, numbering of the source): 6.5

WT1 zinc finger 4 (Homo sapiens, UniProt P19544)
pKa (NMR, refers to: His27; 288 K, KCl 10 mM, apo, unfolded, reduced, numbering of the source): 6.9

CISD1 soluble cytoplasmic domain (Homo sapiens, UniProt Q9NZ45)
pKa (UV-vis, refers to: His87; NaCl 100 mM, cluster oxidised): 6.8

iscU apo (Escherichia coli, UniProt P0ACD4)
pKa (NMR titration, refers to: His105; 25 °C, NaCl 150 mM, D-state, averaged, apo): 6.5

Nitrophorin 2 V24E, heme b (Rhodnius prolixus)
pKa (NMR, refers to: Glu24; 35 °C, D2O, low-spin Fe(III), imidazole-bound, numbering of the source): 6.5

ksi Y32A/D40N/D103N (Pseudomonas putida)
pKa (UV-vis, refers to: Tyr57; 25 °C): > 10

nuc G50F/V51N/P117G/H124L/S128A/del44-49/L38D (Staphylococcus aureus)
pKa (NMR, refers to: His8; 298 K, KCl 100 mM, numbering of the source): 6.5

ksi D40L/D103N (Pseudomonas putida)
pKa (UV-vis, refers to: Tyr57; 25 °C): > 10

ketosteroid isomerase D40N (Pseudomonas putida)
pKa (UV-vis, refers to: Tyr57; apparent, H2O, apo enzyme): 5.78

Msrb2 fragment (Mus musculus)
pKa (NMR, refers to: His148; 298 K, NaCl 25 mM, reduced, Zn2+-bound, substrate-free): 7.2

ORF56 (Sulfolobus islandicus, UniProt Q54323)
pKa (NMR, refers to: Lys12; free native homodimer, low salt): 10.8

nuc G50F/V51N/P117G/H124L/S128A/del44-49 (Staphylococcus aureus)
pKa (NMR, refers to: His8; 298 K, KCl 100 mM, numbering of the source): 6.6

CRYGD (Homo sapiens, UniProt P07320)
pKa (NMR, refers to: His22; 25 °C, numbering of the source): 5.4

nuc G50F/V51N/P117G/H124L/S128A/del44-49/L38E (Staphylococcus aureus)
pKa (NMR, refers to: His121; 298 K, KCl 100 mM, numbering of the source): 5.7

ksi D40H/D103N (Pseudomonas putida)
pKa (UV-vis, refers to: Tyr57; 25 °C): 8.8

Trxr-1 del484-491 (Drosophila melanogaster)
pKa (UV-vis, refers to: Cys62; NaCl 300 mM, numbering of the source, added: NADPH 250 µM): 5.95

ksi D40L/F56A (Pseudomonas putida)
pKa (UV-vis, refers to: Tyr57; 25 °C): 7.5

nuc G50F/V51N/P117G/H124L/S128A/del44-49/L38K (Staphylococcus aureus)
pKa (NMR, refers to: His121; 298 K, KCl 100 mM, numbering of the source): 5.6

A few entries again:
Nitrophorin 2 V24E, heme b (Rhodnius prolixus)
pKa (NMR, refers to: Glu24; 35 °C, D2O, low-spin Fe(III), imidazole-bound, numbering of the source): 6.5

proteorhodopsin, retinal (uncultured gamma-proteobacterium EBAC31A08, UniProt Q9F7P4)
pKa (UV-vis, refers to: Asp97; E. coli membranes; NaCl 100 mM, not purified, oligomeric): 6.7
